Measurements from different studies.
Parts stem from different laboratories: compare values within a part only. Positions count from the first letter of the parent shown.

Set 1
Target: ABI1, truncated, D143A, DHFR fusion (Arabidopsis thaliana)
Technique: DHFR PCA, deep sequencing
Sample: yeast
Notes: methotrexate growth selection, single substitutions
With: (+)-ABA 2500 µM
Baseline: wild-type fitted maximum
Direction: higher = stronger binding
Starting sequence: PYL1, truncated, DHFR fusion (Arabidopsis thaliana); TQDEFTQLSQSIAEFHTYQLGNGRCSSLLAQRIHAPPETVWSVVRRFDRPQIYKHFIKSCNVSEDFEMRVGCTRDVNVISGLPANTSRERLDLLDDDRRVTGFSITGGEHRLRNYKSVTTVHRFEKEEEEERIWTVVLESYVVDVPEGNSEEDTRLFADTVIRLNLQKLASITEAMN
`S63N`: “relative binding score” 97.6%.
`P37Y` — result for “relative binding score”: 84.2%.
For `G71E`, “relative binding score” read 80.3%.
`L8Q` — result for “relative binding score”: 102%.
For `V78F`, “relative binding score” read 80.6%.
`C25A`: “relative binding score” 97.9%.
Under “relative binding score”, `N22I` is recorded as 94.7%.
For `C25S`, “relative binding score” read 89.3%.
`I133F` — result for “relative binding score”: 104%.
Under “relative binding score”, `V40T` is recorded as 85.1%.
For `G107H`, “relative binding score” read 98.9%.
Under “relative binding score”, `F5I` is recorded as 101%.
Under “relative binding score”, `D96P` is recorded as 86.8%.
For `A35P`, “relative binding score” read 0.363%.
`G108T`: “relative binding score” 73.2%.
`Q2M` — result for “relative binding score”: 96.6%.
`N85C` — result for “relative binding score”: 97.4%.
`D65I`: “relative binding score” 84.7%.
`T6F` — result for “relative binding score”: 105%.
Under “relative binding score”, `Y53S` is recorded as 81%.
`T119R`: “relative binding score” 63.8%.

Set 2
Target: CCNE1, cyclin fold, Cln2 fusion (human)
Technique: yeast growth competition, sequencing
Sample: yeast
Notes: strong parent motif
Baseline: not given
Direction: higher = stronger binding
Starting sequence: SCAPER docking peptide (human); SNARRSLNFGGST
Under “normalised enrichment score”, `SKARRSLNFGGST [N2K]` is recorded as 0.673.
For `SNARRSLEFGGST [N8E]`, “normalised enrichment score” read 0.663.
`SNAQRSLNFGGST [R4Q]` — result for “normalised enrichment score”: -0.613.
Under “normalised enrichment score”, `MNARRSLNFGGST [S1M]` is recorded as 1.23.
For `SNARRSINFGGST [L7I]`, “normalised enrichment score” read -0.00307.
`SNARRLLNFGGST [S6L]`: “normalised enrichment score” 1.07.
For `SNARRSLNFGQST [G11Q]`, “normalised enrichment score” read 0.893.
`SNARRSLNFKGST [G10K]` — result for “normalised enrichment score”: 0.645.
Under “normalised enrichment score”, `SNARRSLNFGGHT [S12H]` is recorded as 1.07.
For `SNARKSLNFGGST [R5K]`, “normalised enrichment score” read 0.0414.
For `SNARRVLNFGGST [S6V]`, “normalised enrichment score” read 5.18.
For `SNARRSLNFGMST [G11M]`, “normalised enrichment score” read 0.672.
`SNASRSLNFGGST [R4S]` — result for “normalised enrichment score”: -0.833.
`SFARRSLNFGGST [N2F]`: “normalised enrichment score” 1.32.
Under “normalised enrichment score”, `SNARRSLNFGGSE [T13E]` is recorded as 1.3.
`SNARRSLNFGWST [G11W]`: “normalised enrichment score” 1.01.
For `SNARRSLNFRGST [G10R]`, “normalised enrichment score” read 0.181.
`SNARRCLNFGGST [S6C]`: “normalised enrichment score” 2.74.

Set 3
Target: Histone acetyltransferase KAT6A, both winged helices, GST fusion (KAT6A, Homo sapiens, UniProt Q92794, residues 1-181)
Technique: protein binding microarray
Form: double-stranded DNA, one strand shown
Sample: in vitro
Tested at: not given
Notes: 8-mer, flanks averaged, mean of 2 arrays, mostly near background
Baseline: not given
Direction: higher = stronger binding
Residues (chain): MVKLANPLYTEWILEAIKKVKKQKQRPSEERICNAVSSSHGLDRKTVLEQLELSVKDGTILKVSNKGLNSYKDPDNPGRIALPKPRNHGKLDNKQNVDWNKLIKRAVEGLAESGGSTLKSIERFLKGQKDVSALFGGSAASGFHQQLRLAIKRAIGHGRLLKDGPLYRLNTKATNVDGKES
The E-score of `TAATGTGA` is reported as -0.0206.
`CTAGATTA` has an E-score of -0.131.
`AACCAATT` gave an E-score of -0.105.
With `GGTGCACA` the E-score was -0.0554.
`GCTAGCCA` has an E-score of -0.135.
`ATACTGGA` has an E-score of -0.174.
The E-score of `ACTAACTG` is reported as -0.0723.
The E-score of `CTAGCACC` is reported as -0.0767.
`GTACTGAC` gave an E-score of 0.0816.
The E-score of `CTGTCCGA` is reported as 0.145.
With `CAACGCTG` the E-score was 0.0706.
For `GCCATGGA`, the E-score was -0.089.
For `CGTTTGAA`, the E-score was 0.0729.
The E-score of `GGCACCAC` is reported as 0.0774.
`ATAAGGAA` has an E-score of -0.183.
`GCCCCGCA` has an E-score of 0.128.
`CGACTAGC` has an E-score of 0.089.
With `AGAAGTTA` the E-score was -0.232.
`GTTCGTGA` has an E-score of -0.0117.
`CGTAGGTA` gave an E-score of 0.0161.
`AAAAATTG` has an E-score of -0.109.

Set 4
Target: RING finger protein unkempt homolog, zinc fingers 1-6, GST-SBP tag (UNK, Homo sapiens, UniProt Q9C0B0, residues 30-357)
Sequence of UniProt Q9C0B0 (30-357, looked up): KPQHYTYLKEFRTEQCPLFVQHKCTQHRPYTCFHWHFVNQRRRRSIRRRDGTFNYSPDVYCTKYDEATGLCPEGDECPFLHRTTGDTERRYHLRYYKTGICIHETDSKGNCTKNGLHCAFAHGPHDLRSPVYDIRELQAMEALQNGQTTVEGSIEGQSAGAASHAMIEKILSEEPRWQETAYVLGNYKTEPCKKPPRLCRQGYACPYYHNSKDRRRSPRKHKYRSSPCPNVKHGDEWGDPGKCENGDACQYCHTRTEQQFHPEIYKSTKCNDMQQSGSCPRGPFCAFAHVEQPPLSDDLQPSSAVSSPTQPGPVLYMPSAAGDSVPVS
Technique: RNA Bind-n-Seq
Form: RNA
Sample: in vitro
Tested at: not given
Notes: RNA with constant flanks, human-mouse chimeric sites, ends assumed
Baseline: input RNA pool
Direction: higher = stronger binding
All sequences stand within: GGGAGUUCUACAGUCCGACGAUC … CAACAGAGGAUUGAGCAUCA
With `CUUAAUGUUAAUAUUUUUGAAUAAAUGAAGCUAAAAUGUCUGCUUUUGGUACAACACGCAUUAGCGAAAGGUUAAGUUUUGUUUUCCCUCCACUGAAUAUUUAACAUCUCAGAAAAAAAC` the bound/input enrichment was 0.642 ratio.
`GUUGCCAGCUUCCGGUUGGCCUCCAUCAGCAAGCUCCCUGAGCUACGUGUCUCUACGCUCUCAAUCCGCCAUCCAACAAACAUGGAUCAGGUAAUGCAGUUUGUGGAGCCCAGCCGGCAG` has a bound/input enrichment of 0.0715 ratio.
`UGGCGCCUCCCAUUUUUACUCGUGUUUGUAUUUUUAUUUUUAUAAGAUACAUGUAUUUACAAUUGAGCUUUUGUUACAUAAUGCUGAAAUGCUACUGGAGAUUAUGAAAAAUGUUUCAAU` gave a bound/input enrichment of 0.257 ratio.
For `CAGCGCCGAGGCCGCGGGUGCCCGCCGGGUGUGCUGAGCAGCAGCCAUGGGCAUCAAAUUUUUAGAAGUUAUCAAACCAUUCUGUGCAGUUCUACCAGAAAUUCAGAAACCGGAAAGGAA`, the bound/input enrichment was 0.903 ratio.
`ACUCAGAGAUCCACCUCAAUUGAAGUGGGGAGUAAAGGUGUGGCCACCACACCUAACUUGAUGGAUAUAUAUUUUUUUUAAUAUGAAUCUUCCUGUUCGUCCAGGGAGCAAGAACGGGUU` has a bound/input enrichment of 0.494 ratio.
With `CAGUCCCCGUGUCCCAGUGCAGGACGAUGUGAACAAAAACUCAAAGCGGACCCUCUAUUGUAGUUCUUGAUUCUCGAGUGCCAUUAUUAUUGUUUGUCUUUUUUUUUAAAAGAAAAGAGA` the bound/input enrichment was 0.21 ratio.
The bound/input enrichment of `UCUUUAAAAAAAAAAUUACAGGAAAAUACAGUGCUUUAUGGAGUAAAGAUCCACGUUCAAGCUCAAAGAGCAAAGGCUUUGCACGGAGCUCAAACAUCUGAUGAAGAAAGAUUUCUGAGA` is reported as 0.158 ratio.
For `UUGCUACUGACUCCCUGGGUUAAAUUCCUGUGGGAAUCUUACAGGCAGUGUUUGGACCUUCUUCGAAACAAUUCUAGAGUAGAGCGCCUUUACCAUGAUAUCGCCCAACAAGCUUUCAAA`, the bound/input enrichment was 0.177 ratio.
With `GGCUGCUGGUGACUGUCCUGGAGUGGCUGGAGUUCCCGCCGGAGCGCGCGCAGGUUAAUUAUAGAAAAUGCCAAGUAGGAAGUUUGUUGAGGGUGAAGUGGUCAGAGGCCGAUGGCCUGG` the bound/input enrichment was 3.62 ratio.
`ACUCUUGACUCUUUCCAUCCUCUUCCUUUUCCUCUUGAUAUUCAAGGCCAUGAAUCCCAAAAUAGCUGUCUUAGUGGCUAGCACCCAAACAGAGGUGGAAUAAAUCCACCCCAGUGUCUC` has a bound/input enrichment of 0.868 ratio.
With `CGCCUGGAUGAGGCGGGUGUCACAGAUGAAGUGCUGGAUUCUGCCAUGCAAGCCUUCCUUCUGGAGGUCAUUGUUAAACAUGGGGAGCCGGCACCUUAUUUAUGUAACAAAGAUCCGUUU` the bound/input enrichment was 0.0743 ratio.

Set 5
Target: RNA binding protein fox-1 homolog 2, RRM domain, GST-SBP tag (RBFOX2, Homo sapiens, UniProt O43251-10, residues 100-194)
Technique: RNA Bind-n-Seq
Form: RNA
Sample: in vitro
Tested at: 365 nM
Notes: natural RNA segment, single round, ends assumed
Baseline: no-protein control
Direction: higher = stronger binding
All sequences stand within: GGGAGUUCUACAGUCCGACGAUC … UGGAAUUCUCGGGUGCCAA
Residues (chain): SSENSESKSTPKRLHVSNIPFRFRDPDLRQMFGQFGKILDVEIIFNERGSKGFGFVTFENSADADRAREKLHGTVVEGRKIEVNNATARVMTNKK
`GGAUAAAUGUGGUGUUCCUAGCAGGCUGCUUGUUGAAAUUCCAGUGUUUUAAAAAUAUUUUUGUUGUGUUGCAGUCGUGAACAUUUUCCAUUUCUGAUGUUGUCUGCCCA`: “RBNS enrichment (R)” 0.848.
`GCUGGGUUGGAGGUGGGUAUCAAGUGAUUAUUUCCUAUCAAGACAUCUUUAAAUUAUAGAGCUCAGUAAUCAAUUUAAAGACAGUGUUAAGCUACUCACAGUGGCAAAUG` — result for “RBNS enrichment (R)”: 0.442.
`UAAGGAACUUCCCAGAUGAUUAGAAGUACAAGACUUGCUUUGUUUUGUUUUCUUUGGUUUUUGUGUUUUUUUGGAGUUUGGCUGGAAGAGGUUUCUGUAAACCUGAAGCC`: “RBNS enrichment (R)” 1.26.
`UCAAUUCCAGAGCCCCUCCACUCUAACGCUAUGCUUUGCUUAUUAUUGCUACAGAGAUAACUGCCCUGUAGUAUCCCAAUGGAUAUCACUCCCAGUCUCAAAUUGGGCUG` — result for “RBNS enrichment (R)”: 0.645.
For `UGUCAACACAAAGACAUGGAAGAUUAGAGGUUUGUCAACACAAAGACACAGGAAGAAUGGGCUGCAGAAGAUUUAGAUGUUUUCCAUUUGGGCACAUUUUACUUAGCUGG`, “RBNS enrichment (R)” read 0.328.
For `AUUCUGUUGGGUUUGGGCACAUAGGGCCAAAGGCAGAGGAGGGUGGCACUCUCAUGUUGGAACUUCUUUUGGGCUCAUGCUCAGGCCUUUUUUGGAUCACUAAGGACUAU`, “RBNS enrichment (R)” read 0.837.
Under “RBNS enrichment (R)”, `CAAACGGAAGAAUUAGAGACGUCCUACAAGGCAGAUUCAGACCAAUAUUUCUUCGUAUAGUUUAUUCUUUCUUUUAUAUAUUAUCUAAAUAUAUGUAUAUGUUGUGUAAU` is recorded as 0.692.
For `AUAUUUAGAAACUCAAAAUCAUGUCCUCUUCCACCGGCAGCAAUAUAGUGGAGAAACCAGAAAGAAACUGAGCCCUAGGCUGGGCAUUCCCACUGCAGUGGACCUACUCG`, “RBNS enrichment (R)” read 0.546.
`CCGGGAGGAGUGACUCCUCUGAAGAAGACAUGACUCAUGUUCAGUUGAGACCCCAGACUCUAGCCACACACAUGCCACAGACAUGCCAGGGAGUGGCAAAGCACUGACUC` — result for “RBNS enrichment (R)”: 0.705.
`UCACACUGCUUCUUAUCCUGAACACUUGACACCUUGAGGGUAGAAUAUAGCAUUUGGUUUUUACCUCCUAGCAUAUGCUACUUGGUAUGUGAGGGUUUCAGUACAAAUGC` — result for “RBNS enrichment (R)”: 0.604.
Under “RBNS enrichment (R)”, `ACUCGCAGGCAGGCCUGAGAGCCCCAGCCACUCUUCCGGCCCUCGGCGGACCUGCAGAUGACCUGGAGUUCCUGAUUCAGGUCCCUGUCUGCAGCCCGGGCUGCCUGGGC` is recorded as 0.235.
Under “RBNS enrichment (R)”, `AUUGUACUUGAAACACCUCCUUUGCAUUUCUCCAUUUGUGCCAUUCACUAGUGGAAAUAAAUUGUAUUAUACCAUGAUCUACUGGCUUUUUAAAACUGUAUUAAAUAUGC` is recorded as 0.412.

For quick reference, copied from above (set 1):
`T6F` — result for “relative binding score”: 105%.
`T119R`: “relative binding score” 63.8%.
`S63N`: “relative binding score” 97.6%.
`G108T`: “relative binding score” 73.2%.
Under “relative binding score”, `Y53S` is recorded as 81%.
`L8Q` — result for “relative binding score”: 102%.
For `C25S`, “relative binding score” read 89.3%.
`D65I`: “relative binding score” 84.7%.
`Q2M` — result for “relative binding score”: 96.6%.
For `A35P`, “relative binding score” read 0.363%.
`I133F` — result for “relative binding score”: 104%.
